{"data": "Experimental data pooled from the literature", "note": "Parts stem from different laboratories: compare values within a part only. Substitutions count along the parent as printed."}
{"data": "Series 1", "target": "CCNB1, cyclin fold, Cln2 fusion (human)", "technique": "yeast growth competition, sequencing", "medium": "yeast", "notes": "strong parent motif", "relative to": "not given", "reading": "higher = stronger binding", "parent": "MICAL3 docking peptide (human); LQLRRQLSFSEDS; partner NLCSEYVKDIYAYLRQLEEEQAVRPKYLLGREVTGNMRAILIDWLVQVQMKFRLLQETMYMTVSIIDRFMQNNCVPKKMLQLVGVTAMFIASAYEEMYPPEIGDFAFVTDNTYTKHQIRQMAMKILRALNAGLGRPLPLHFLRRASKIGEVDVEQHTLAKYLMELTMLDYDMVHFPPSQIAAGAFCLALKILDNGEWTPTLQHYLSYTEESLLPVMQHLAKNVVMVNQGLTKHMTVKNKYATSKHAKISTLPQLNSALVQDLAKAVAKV"}
{"Variant": "L7S", "normalised enrichment score": -0.268}
{"Variant": "R4S", "normalised enrichment score": 3.06}
{"Variant": "L7C", "normalised enrichment score": 0.0403}
{"Variant": "S8K", "normalised enrichment score": 1.17}
{"Variant": "Q2T", "normalised enrichment score": 4.74}
{"Variant": "R5Q", "normalised enrichment score": 0.496}
{"Variant": "E11F", "normalised enrichment score": 1.63}
{"Variant": "L7W", "normalised enrichment score": 0.0883}
{"Variant": "S8F", "normalised enrichment score": 1.91}
{"Variant": "E11C", "normalised enrichment score": 3.18}
{"Variant": "E11Q", "normalised enrichment score": 3.01}
{"Variant": "R5L", "normalised enrichment score": 0.445}
{"Variant": "S10K", "normalised enrichment score": 2.76}
{"Variant": "L3W", "normalised enrichment score": 2.67}
{"Variant": "D12T", "normalised enrichment score": 4.13}
{"Variant": "S10Y", "normalised enrichment score": 2.72}
{"Variant": "Q6L", "normalised enrichment score": 0.82}
{"Variant": "Q2G", "normalised enrichment score": 4.81}
{"Variant": "F9I", "normalised enrichment score": -0.0876}
{"data": "Series 2", "target": "ABI1, truncated, D143A, DHFR fusion (Arabidopsis thaliana)", "technique": "DHFR PCA, deep sequencing", "medium": "yeast", "notes": "methotrexate growth selection, single substitutions", "with": "(+)-ABA 0.032 µM", "relative to": "wild-type fitted maximum", "reading": "higher = stronger binding", "parent": "PYL1, truncated, DHFR fusion (Arabidopsis thaliana); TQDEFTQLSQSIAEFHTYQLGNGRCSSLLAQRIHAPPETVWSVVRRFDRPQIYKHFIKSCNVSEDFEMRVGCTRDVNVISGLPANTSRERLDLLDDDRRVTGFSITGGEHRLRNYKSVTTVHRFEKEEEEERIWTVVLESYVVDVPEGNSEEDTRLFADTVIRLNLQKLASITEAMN"}
{"Variant": "F157D", "relative binding score [%]": 7.89}
{"Variant": "A170L", "relative binding score [%]": -9.49}
{"Variant": "Q19A", "relative binding score [%]": 29.1}
{"Variant": "T101S", "relative binding score [%]": 1.97}
{"Variant": "F5Y", "relative binding score [%]": 21.7}
{"Variant": "R155M", "relative binding score [%]": 7.32}
{"Variant": "H110G", "relative binding score [%]": 28.2}
{"Variant": "L169G", "relative binding score [%]": -1.81}
{"Variant": "K116W", "relative binding score [%]": -3.28}
{"Variant": "S11V", "relative binding score [%]": 33.2}
{"Variant": "A30G", "relative binding score [%]": 8.77}
{"Variant": "S27V", "relative binding score [%]": 2.5}
{"Variant": "T6D", "relative binding score [%]": 37.6}
{"Variant": "N22L", "relative binding score [%]": 18.4}
{"data": "Series 3", "target": "Interferon regulatory factor 3, full length, phosphomimetic (IRF3, Homo sapiens, UniProt Q14653, residues 1-427, S386D/S396D/S398D/S402D/T404D/S405D)", "technique": "protein-binding microarray", "molecule type": "double-stranded DNA, one strand shown", "medium": "in vitro", "concentration": "2540 nM top", "notes": "60-bp whole probe", "with": "salmon DNA 0.4 mg/ml", "relative to": "random background probes", "reading": "higher = stronger binding", "shared flanks, not repeated": "GCCTAGCAC … GTCTTGATTCGCTTGACGCTGCTG", "Target sequence (chain)": "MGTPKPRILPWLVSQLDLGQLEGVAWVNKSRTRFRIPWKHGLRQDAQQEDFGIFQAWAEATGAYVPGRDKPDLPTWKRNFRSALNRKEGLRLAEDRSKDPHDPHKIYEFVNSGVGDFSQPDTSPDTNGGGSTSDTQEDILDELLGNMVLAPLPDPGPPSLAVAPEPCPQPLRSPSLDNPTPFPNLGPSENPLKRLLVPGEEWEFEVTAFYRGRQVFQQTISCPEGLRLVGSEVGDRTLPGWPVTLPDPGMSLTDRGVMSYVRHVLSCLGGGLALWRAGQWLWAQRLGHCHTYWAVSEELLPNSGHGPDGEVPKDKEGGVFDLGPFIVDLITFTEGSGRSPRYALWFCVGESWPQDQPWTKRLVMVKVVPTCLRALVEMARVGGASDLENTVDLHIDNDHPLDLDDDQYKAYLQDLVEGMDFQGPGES"}
{"Oligonucleotide": "TTAGGACTGCTTTTCCTTTTGTGCTAG", "fitted relative affinity [z-score]": 1.75}
{"Oligonucleotide": "GACGGGCTGCTTTTCCTGACGTGCTAG", "fitted relative affinity [z-score]": -0.402}
{"Oligonucleotide": "TCATATACACACTATAGTACTGTGCTA", "fitted relative affinity [z-score]": 0.691}
{"Oligonucleotide": "TTAGGTATCTGGTATCGGTTAGTGCTA", "fitted relative affinity [z-score]": 1.69}
{"Oligonucleotide": "TTAGGTCTGGGGTATCGGTTAGTGCTA", "fitted relative affinity [z-score]": -0.0345}
{"Oligonucleotide": "TTTGATTTCGGGTTTCGATTAGTGCTA", "fitted relative affinity [z-score]": 3.7}
{"Oligonucleotide": "GACGATTCCAGTTTCGAAACGTGCTAG", "fitted relative affinity [z-score]": 4.58}
{"Oligonucleotide": "TCACCTCTGTTTTGAGCACTGTGCTAG", "fitted relative affinity [z-score]": 0.417}
{"Oligonucleotide": "TTAGGACTTCTTTTCCTTTAGTGCTAG", "fitted relative affinity [z-score]": 1.26}
{"Oligonucleotide": "AATTAGGTTTCACTTTCCAAAGTGCTA", "fitted relative affinity [z-score]": 8.13}
{"Oligonucleotide": "GACGTTTCCCTTTTCCTGACGTGCTAG", "fitted relative affinity [z-score]": 8.88}
{"Oligonucleotide": "TTTTGCTTTCATTTATTTACGTGCTAG", "fitted relative affinity [z-score]": 4.3}
{"data": "Series 4", "target": "RNA binding protein fox-1 homolog 2, RRM domain, GST-SBP tag (RBFOX2, Homo sapiens, UniProt O43251-10, residues 100-194)", "technique": "RNA Bind-n-Seq", "molecule type": "RNA", "medium": "in vitro", "concentration": "365 nM", "notes": "natural RNA segment, single round, ends assumed", "relative to": "no-protein control", "reading": "higher = stronger binding", "shared flanks, not repeated": "GGGAGUUCUACAGUCCGACGAUC … UGGAAUUCUCGGGUGCCAA", "Residues (chain)": "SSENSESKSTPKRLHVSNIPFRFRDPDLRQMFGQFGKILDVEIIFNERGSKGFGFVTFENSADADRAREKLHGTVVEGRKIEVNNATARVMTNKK"}
{"Oligonucleotide": "UCUUAGUCAGUUUUUAGGGGACCUCGGGGGUGGGGUAUAUAGGUAAUAUACAGAGCAUUUUGACUUCUAAAUAGUUAGAUCCAGAGAUGAAGUGCACUGUUCUCUCUUCA", "RBNS enrichment (R)": 0.784}
{"Oligonucleotide": "CUCGUGCCAAGAAGCCCUGGGCCAGGGCCAGGUGUUUCCAGAGCCAAGUGCCCAUGUGUGUAUGGGAAGAGGUGGCUAAAGCCACUAGACUAGGGUGCUCACCCCUCAAG", "RBNS enrichment (R)": 0.411}
{"Oligonucleotide": "ACAAUGUUCCAGUUCUUUUUGUACUGUGGAAUCAACAUGACACCAUCUCAUUGAUUAUUGACACCUUGAGGUCUGAAGGAUUCCACACUCGAGGAUGCUGACCUAAGCCA", "RBNS enrichment (R)": 0.254}
{"Oligonucleotide": "GCACUUAUUUCCCUCCUGUCCUAGGAUUUGAUUCUUCCAGAAUGACCUUCUUAUUUAUGUAACUGGCUUUCAUUUAGAUUGUAAGUUAUGGACAUGAUUUGAGAUGUAGA", "RBNS enrichment (R)": 0.383}
{"Oligonucleotide": "CUUUCGGGUCAUGUUUCUUGUCUUGUUCCCAGAUCUUUUCUUAAAAGAACAGUGUGACACCAGAAGCCAAGAGAUGGUUUUUACUAACAACAGCUUUGAUGAGUUCCUAU", "RBNS enrichment (R)": 0.166}
{"Oligonucleotide": "UAAAAACCUAAUACUAAGCAAUAUGAAGCUGCACUCUGCUUUUAAGUGAGGCCAAGCCAAGUAAGCCAGAGGGGGAGGGGCAUUUGCUUUCCAAAUCCUAAGGAAAAAUG", "RBNS enrichment (R)": 0.415}
{"Oligonucleotide": "CAUUUCACUGAUUGGAAUGUGGAAAUGGAAAAGGAAUUUAGGAUGUGCAUUUUCACCUGAGGUUUCCCUGCAUCCCUGCAGUGCCAAAGCCCCACCUUCAGGGACCACCU", "RBNS enrichment (R)": 2.74}
{"Oligonucleotide": "UUAUUAGUUUAGUAUUUUAAAAGAUUUAAUUUUCUGAAUGAGGCAUUUGAAUUGUACCAGCAAUGGACUUUUAAAAAAUUGGAUGUAAAACCAUUCAGGGUGAUUUUUCU", "RBNS enrichment (R)": 0.693}
{"note": "Excerpt of the above (series 3):"}
{"Oligonucleotide": "TTTGATTTCGGGTTTCGATTAGTGCTA", "fitted relative affinity [z-score]": 3.7}
{"Oligonucleotide": "TTAGGACTTCTTTTCCTTTAGTGCTAG", "fitted relative affinity [z-score]": 1.26}
{"Oligonucleotide": "GACGGGCTGCTTTTCCTGACGTGCTAG", "fitted relative affinity [z-score]": -0.402}
{"Oligonucleotide": "TTAGGTATCTGGTATCGGTTAGTGCTA", "fitted relative affinity [z-score]": 1.69}
